Measured values collected from several papers.
Each numbered part is a random draw from the data of one study; scales do not carry over between parts. Values joined by “and” are separate records of one study, mostly repeats; a detail may differ.
Chain of UniProt Q99683 (whole entry, looked up): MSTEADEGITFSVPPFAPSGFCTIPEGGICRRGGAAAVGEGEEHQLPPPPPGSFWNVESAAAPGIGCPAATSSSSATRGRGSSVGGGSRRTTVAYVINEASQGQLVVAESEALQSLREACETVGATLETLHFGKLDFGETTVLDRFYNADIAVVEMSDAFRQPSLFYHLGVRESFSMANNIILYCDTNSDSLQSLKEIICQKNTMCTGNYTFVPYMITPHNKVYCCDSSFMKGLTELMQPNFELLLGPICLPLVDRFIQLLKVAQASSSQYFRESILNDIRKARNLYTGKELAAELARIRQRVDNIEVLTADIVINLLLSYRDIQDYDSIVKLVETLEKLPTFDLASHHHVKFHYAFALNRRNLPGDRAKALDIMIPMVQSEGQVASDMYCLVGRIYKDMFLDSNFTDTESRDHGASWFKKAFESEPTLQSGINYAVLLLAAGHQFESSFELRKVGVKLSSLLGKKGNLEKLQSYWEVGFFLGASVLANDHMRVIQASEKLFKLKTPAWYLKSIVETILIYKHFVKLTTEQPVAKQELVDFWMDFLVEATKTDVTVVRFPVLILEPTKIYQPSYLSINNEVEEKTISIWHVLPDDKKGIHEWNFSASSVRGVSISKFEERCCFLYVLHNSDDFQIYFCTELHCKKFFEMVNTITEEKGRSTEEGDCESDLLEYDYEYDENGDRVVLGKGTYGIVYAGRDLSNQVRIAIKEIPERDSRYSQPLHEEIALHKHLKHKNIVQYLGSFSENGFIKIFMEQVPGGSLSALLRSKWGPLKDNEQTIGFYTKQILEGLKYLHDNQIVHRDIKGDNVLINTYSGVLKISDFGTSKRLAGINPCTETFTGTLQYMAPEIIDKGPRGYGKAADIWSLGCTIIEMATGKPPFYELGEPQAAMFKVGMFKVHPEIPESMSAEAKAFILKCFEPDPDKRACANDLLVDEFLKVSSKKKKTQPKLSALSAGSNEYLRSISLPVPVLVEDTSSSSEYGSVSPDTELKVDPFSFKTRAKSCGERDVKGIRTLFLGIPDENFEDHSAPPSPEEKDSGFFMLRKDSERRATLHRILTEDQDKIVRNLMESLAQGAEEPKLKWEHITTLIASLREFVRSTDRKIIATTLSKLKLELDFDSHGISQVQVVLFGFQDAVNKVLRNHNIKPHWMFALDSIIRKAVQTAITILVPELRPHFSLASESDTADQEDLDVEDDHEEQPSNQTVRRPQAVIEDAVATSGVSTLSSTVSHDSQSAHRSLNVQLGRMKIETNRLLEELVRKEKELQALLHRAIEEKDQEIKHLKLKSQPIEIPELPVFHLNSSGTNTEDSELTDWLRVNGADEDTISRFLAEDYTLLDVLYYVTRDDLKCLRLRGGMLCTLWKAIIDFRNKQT
Chain of UniProt Q9Y6E0 (whole entry, looked up): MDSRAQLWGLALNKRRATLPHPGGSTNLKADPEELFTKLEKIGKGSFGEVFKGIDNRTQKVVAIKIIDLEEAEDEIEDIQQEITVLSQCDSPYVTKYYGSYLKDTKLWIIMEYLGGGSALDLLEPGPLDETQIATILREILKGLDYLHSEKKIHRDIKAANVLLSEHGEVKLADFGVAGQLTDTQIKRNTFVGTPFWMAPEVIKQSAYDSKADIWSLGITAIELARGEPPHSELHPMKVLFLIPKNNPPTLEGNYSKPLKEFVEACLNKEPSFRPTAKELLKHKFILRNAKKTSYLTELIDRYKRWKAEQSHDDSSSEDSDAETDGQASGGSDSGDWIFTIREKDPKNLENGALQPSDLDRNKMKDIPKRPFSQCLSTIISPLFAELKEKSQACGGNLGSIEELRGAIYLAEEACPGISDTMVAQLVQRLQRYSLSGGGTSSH
Chain of UniProt Q99558 (whole entry, looked up): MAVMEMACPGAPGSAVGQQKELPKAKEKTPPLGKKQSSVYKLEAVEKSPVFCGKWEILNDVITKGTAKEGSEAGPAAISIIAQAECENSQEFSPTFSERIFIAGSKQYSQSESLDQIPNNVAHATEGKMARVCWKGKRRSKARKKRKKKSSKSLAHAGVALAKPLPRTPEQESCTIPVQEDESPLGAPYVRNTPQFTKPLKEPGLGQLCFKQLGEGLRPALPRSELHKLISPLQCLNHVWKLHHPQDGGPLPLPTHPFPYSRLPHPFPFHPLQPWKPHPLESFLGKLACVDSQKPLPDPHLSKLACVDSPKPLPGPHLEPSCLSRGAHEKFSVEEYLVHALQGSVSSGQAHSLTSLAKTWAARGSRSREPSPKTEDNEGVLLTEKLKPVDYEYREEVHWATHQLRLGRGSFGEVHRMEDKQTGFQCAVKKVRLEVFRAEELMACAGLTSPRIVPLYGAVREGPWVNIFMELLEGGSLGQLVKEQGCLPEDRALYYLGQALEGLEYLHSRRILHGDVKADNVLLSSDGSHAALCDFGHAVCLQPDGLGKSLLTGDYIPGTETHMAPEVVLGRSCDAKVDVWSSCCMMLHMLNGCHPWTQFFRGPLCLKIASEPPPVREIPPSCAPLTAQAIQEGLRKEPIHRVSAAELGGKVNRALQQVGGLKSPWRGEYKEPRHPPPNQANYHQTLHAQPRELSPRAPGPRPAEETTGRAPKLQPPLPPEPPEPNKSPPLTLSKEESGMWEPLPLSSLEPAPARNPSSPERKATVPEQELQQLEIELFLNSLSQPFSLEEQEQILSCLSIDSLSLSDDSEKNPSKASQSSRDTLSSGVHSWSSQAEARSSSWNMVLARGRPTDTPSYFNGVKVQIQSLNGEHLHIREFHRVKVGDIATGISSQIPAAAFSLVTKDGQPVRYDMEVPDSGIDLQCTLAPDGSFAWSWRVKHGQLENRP
Chain of UniProt P11362 (whole entry, looked up): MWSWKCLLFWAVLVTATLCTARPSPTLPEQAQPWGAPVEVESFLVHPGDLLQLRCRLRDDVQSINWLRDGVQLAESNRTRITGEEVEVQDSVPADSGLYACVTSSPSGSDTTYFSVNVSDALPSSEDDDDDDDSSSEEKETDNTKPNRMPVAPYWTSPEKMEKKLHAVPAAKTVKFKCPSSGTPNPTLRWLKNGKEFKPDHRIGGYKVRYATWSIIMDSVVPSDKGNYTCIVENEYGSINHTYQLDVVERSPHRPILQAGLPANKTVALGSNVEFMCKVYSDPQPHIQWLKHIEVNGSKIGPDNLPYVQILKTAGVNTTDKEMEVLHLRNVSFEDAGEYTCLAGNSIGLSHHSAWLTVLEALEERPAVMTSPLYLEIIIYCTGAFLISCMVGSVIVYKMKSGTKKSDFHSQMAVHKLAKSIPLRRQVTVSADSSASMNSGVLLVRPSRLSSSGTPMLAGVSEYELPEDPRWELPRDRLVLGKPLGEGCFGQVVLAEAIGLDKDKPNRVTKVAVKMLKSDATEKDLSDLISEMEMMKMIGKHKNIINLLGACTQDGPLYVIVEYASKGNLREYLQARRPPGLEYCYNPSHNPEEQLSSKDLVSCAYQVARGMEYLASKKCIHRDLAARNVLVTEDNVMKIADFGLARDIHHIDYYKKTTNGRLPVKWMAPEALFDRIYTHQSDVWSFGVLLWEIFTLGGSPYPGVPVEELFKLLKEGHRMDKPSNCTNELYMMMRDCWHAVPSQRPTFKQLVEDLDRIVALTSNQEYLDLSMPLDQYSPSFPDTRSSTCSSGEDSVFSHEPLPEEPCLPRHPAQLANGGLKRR
Chain of UniProt P22607 (whole entry, looked up): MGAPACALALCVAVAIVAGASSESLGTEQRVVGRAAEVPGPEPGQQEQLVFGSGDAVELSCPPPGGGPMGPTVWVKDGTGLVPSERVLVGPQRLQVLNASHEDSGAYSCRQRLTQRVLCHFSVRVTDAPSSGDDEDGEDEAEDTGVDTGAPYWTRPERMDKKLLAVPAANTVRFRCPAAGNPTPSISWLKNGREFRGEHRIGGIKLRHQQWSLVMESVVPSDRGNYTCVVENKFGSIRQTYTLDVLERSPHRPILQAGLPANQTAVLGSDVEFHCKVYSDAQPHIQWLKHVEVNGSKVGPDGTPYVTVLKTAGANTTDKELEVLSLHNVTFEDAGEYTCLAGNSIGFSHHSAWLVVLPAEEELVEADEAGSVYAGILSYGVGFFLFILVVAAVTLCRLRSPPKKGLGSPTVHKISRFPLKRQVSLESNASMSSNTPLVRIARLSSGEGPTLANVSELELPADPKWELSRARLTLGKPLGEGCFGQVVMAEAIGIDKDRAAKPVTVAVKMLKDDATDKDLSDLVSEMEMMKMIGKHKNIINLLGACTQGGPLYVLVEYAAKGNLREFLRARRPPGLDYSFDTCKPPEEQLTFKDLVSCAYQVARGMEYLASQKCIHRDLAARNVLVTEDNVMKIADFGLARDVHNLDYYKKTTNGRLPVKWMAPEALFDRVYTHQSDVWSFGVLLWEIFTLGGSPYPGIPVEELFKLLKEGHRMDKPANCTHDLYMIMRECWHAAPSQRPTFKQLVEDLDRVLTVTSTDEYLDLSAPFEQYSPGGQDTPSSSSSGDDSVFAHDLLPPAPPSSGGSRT

Block 1
SMILES: CC(C)(C(=O)O)[C@H](NC(=O)Cc1cccc(I)c1)c1ccc2oc(=O)[nH]c2c1
Technique: Incucyte 3D growth
Tested at: 30 µM
Reading: higher = more growth
cell line	time	spheroid area
NCI-H1437	174 h	5.29e+07 a.u. and 5.93e+07 a.u. and 3.45e+07 a.u. and 3.18e+07 a.u. and 3.96e+07 a.u. and 3.93e+07 a.u.
A375	24.52 h	1.43e+07 a.u. and 1.54e+07 a.u. and 1.06e+07 a.u. and 1.66e+07 a.u. and 1.24e+07 a.u. and 1.13e+07 a.u.
NCI-H358	6 h	3.04e+06 a.u. and 3.58e+06 a.u. and 3.5e+06 a.u. and 3.78e+06 a.u. and 3.22e+06 a.u. and 3.53e+06 a.u.

Block 2
Target: Calcium/calmodulin-dependent protein kinase type II subunit alpha (CAMK2A, Homo sapiens, UniProt Q9UQM7)
Chain of UniProt Q9UQM7 (whole entry, looked up): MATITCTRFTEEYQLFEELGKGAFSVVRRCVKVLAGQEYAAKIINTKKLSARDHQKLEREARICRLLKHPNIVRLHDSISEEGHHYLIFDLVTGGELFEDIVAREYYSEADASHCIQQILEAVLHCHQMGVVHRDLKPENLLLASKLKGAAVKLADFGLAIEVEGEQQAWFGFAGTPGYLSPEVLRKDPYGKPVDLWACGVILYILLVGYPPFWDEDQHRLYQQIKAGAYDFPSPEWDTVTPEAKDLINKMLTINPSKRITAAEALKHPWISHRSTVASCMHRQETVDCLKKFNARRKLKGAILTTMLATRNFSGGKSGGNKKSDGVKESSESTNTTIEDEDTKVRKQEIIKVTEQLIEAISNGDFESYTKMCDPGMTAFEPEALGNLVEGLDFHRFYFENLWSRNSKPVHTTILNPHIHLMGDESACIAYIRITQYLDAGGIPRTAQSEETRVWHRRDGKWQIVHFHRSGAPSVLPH
Effect on: enzyme activity
Mode: inhibitor
Tested at: 10 µM
SMILES	inhibition [%]
O=C1C(O)=C([C@H]2CC[C@H](c3ccc(Cl)cc3)CC2)C(=O)c2ccccc21	-14
NCCS(=O)O	21
O=C(CO)[C@@H](O)[C@@H](O)[C@H](O)[C@H](O)CO	-7
O=C(O)C(O)Cc1ccc(O)cc1 (stereo not drawn)	44

Block 3
Cell line: A-375
Tested at: 100 µM
Time: 18 h
Compound	viability
CCC(Cc1c(I)cc(I)c(N)c1I)C(=O)O (stereo not drawn)	104%
CC(C)C[C@H](NC(=O)[C@H](Cc1ccccc1)NC(=O)c1cnccn1)B(O)O	17.9%
CC1=C(/C=C/C(C)=C/C=C/C(C)=C/CO)C(C)(C)CCC1	45.8%
CCCCCCCCc1ccc(CCC(N)(CO)CO)cc1	8.52%

Block 4
SMILES: COc1cccc(CNC(=O)c2nc3scc(COCc4ccc(C(=O)O)cc4)c3c(=O)[nH]2)c1
Effect on: cell-free assay
Technique: competition with immobilised ligand
Tested at: 1 µM
target	remaining binding [%]
STK24 (Homo sapiens, UniProt Q9Y6E0)	100
PAK5 (Homo sapiens, UniProt Q9P286)	87.4
BRAF (Homo sapiens, UniProt P15056)	72.8

Block 5
Structure (SMILES): CC(C)n1cnc2c(Nc3cccc(Cl)c3)nc(NCCO)nc21
Effect on: enzyme activity
Mode: inhibitor
Tested at: 0.5 µM
Relative to: control
target	remaining activity [%]
ABL2 (Homo sapiens, UniProt P42684)	60.7
RPS6KA2 (Homo sapiens, UniProt Q15349)	62.1
FGFR1 (Homo sapiens, UniProt P11362)	84.2
NEK6 (Homo sapiens, UniProt Q9HC98)	101
CSNK1G2 (Homo sapiens, UniProt P78368)	20.6
FGFR3 (Homo sapiens, UniProt P22607)	95.1
LCK (Homo sapiens, UniProt P06239)	84.9
MAPKAPK2 (Homo sapiens, UniProt P49137)	98.9
MAP3K5 (Homo sapiens, UniProt Q99683)	114
MAPK3 (Homo sapiens, UniProt P27361)	111
NEK1 (Homo sapiens, UniProt Q96PY6)	90.4
MST1R (Homo sapiens, UniProt Q04912)	101
MAP3K14 (Homo sapiens, UniProt Q99558)	97.4

Excerpt of the above (block 5):
target	remaining activity [%]
MAPK3 (Homo sapiens, UniProt P27361)	111
NEK6 (Homo sapiens, UniProt Q9HC98)	101
MAP3K14 (Homo sapiens, UniProt Q99558)	97.4
